Assay results of several laboratories.
Protocols differ between the studies behind these lines.

Structure (SMILES) | cell line | effect on | method | time | CC50
O=C(CCN(CCC(=O)NC(Cc1c[nH]c2ccccc12)C(=O)O)C(=O)CCC(CCC(=O)N(CCC(=O)NC(Cc1c[nH]c2ccccc12)C(=O)O)CCC(=O)NC(Cc1c[nH]c2ccccc12)C(=O)O)(CCC(=O)N(CCC(=O)NC(Cc1c[nH]c2ccccc12)C(=O)O)CCC(=O)NC(Cc1c[nH]c2ccccc12)C(=O)O)[N+](=O)[O-])NC(Cc1c[nH]c2ccccc12)C(=O)O (stereo not drawn) | MT4 |  |  | 5 (unit not given) | > 100 µM
COc1ccc2c(c1)C1CC(C)(N2)c2c(C)nc3ccc(OC)cc3c21 (stereo not drawn) | Huh-7 | cell growth or viability | MTT | 24 h | > 400 µM
COc1cc(CN2CCN(c3ccccc3F)CC2)c2cc3[n+](cc2c1O)CCc1cc2c(cc1-3)OCO2 | MDCK | cell growth or viability | SRB | 48 h | 126 µg/mL
Cc1ncnc2c1c(C(F)(F)F)cn2[C@@H]1O[C@H](CO)[C@@H](O)[C@H]1O | MRC-5 SV2 | cell growth or viability | resazurin | 72 h | 1.68 µM
COc1cc(CN2CCN(c3ccc(C)cc3)CC2)c2cc3[n+](cc2c1O)CCc1cc2c(cc1-3)OCO2 | MDCK | cell growth or viability | SRB | 48 h | 142 µg/mL
C[N+](C)(CC(=O)Nc1cccc(C(F)(F)F)c1)CC(=O)Nc1cccc(C(F)(F)F)c1 | Huh-7 | cell growth or viability |  |  | 2.99 µM
CC1=CCC[C@H](C)[C@@]12CC[C@@H](C(C)(C)O)C2 | MDCK | cell growth or viability | MTT | 72 h | 181 µg/mL
OC[C@H]1[C@@H](O)[C@@H](O)CN1CCc1ccccc1 | BJ |  | MTS | 72 h | > 200 µM
COc1cc(CN2CCN(c3ccc(F)cc3)CC2)c2cc3[n+](cc2c1O)CCc1cc2c(cc1-3)OCO2 | MDCK | cell growth or viability | SRB | 48 h | 139 µg/mL
Cc1cc(Oc2c(C(F)(F)F)ccn(Cc3n[nH]c(=O)n3C)c2=O)c2cccc(Cl)c2n1 | MT4 | cell growth or viability | MTT |  | 233 µM
COc1ccc(Nc2c(C#N)cnc3ccc(Cl)cc23)cc1 | mouse primary embryonic cardiomyocytes |  | resazurin | 72 h | > 100 µM
COc1cc(CN2CCN(c3ccc(Cl)cc3)CC2)c2cc3[n+](cc2c1O)CCc1cc2c(cc1-3)OCO2 | MDCK | cell growth or viability | SRB | 48 h | 194 µg/mL

Excerpt of the above:
Structure (SMILES) | cell line | effect on | method | time | CC50
COc1ccc2c(c1)C1CC(C)(N2)c2c(C)nc3ccc(OC)cc3c21 (stereo not drawn) | Huh-7 | cell growth or viability | MTT | 24 h | > 400 µM
COc1cc(CN2CCN(c3ccccc3F)CC2)c2cc3[n+](cc2c1O)CCc1cc2c(cc1-3)OCO2 | MDCK | cell growth or viability | SRB | 48 h | 126 µg/mL
